Experimental data pooled from the literature.
Lines come from different studies, so protocols differ. Numbers after ± are the reported error.

With `C[C@H]1CN(C2COC2)CCN1c1ccc(Nc2cc(-c3ccnc(N4CCn5c(cc6c5CC(C)(C)C6)C4=O)c3CO)cn(C)c2=O)nc1` the IC50 was 0.012 µM (TMD8; calcium flux, FLIPR; 1 h preincubation, added: anti-IgM).
For `COc1cc2nc(N3CCN(C(=O)C4COc5ccccc5O4)CC3)nc(N)c2cc1OC` (stereo not drawn), the IC50 was 24 ± 4.4 µM (TW01; MTT; 48 h).
For `Cc1nc(NC(=O)N2CCC[C@H]2C(N)=O)sc1-c1ccnc(C(C)(C)C(F)(F)F)c1`, the IC50 was 1.78 µM (BT-20; growth rate inhibition, CellTiter-Glo; 120 h).
For `Nc1ncc(-c2cnn(C3CCNCC3)c2)cc1-c1nnc(CC2CC2)o1`, the IC50 was 0.185 µM (MOLM-13; cell viability; 72 h).
With `COc1cc(Cn2nc(-c3ccc(CO)o3)c3ccccc32)ccn1` the IC50 was 0.41 µM (SNU-1079; cell viability, CellTiter-Glo).
For `C[C@@H]1CC[C@@H]([C@@](C)(O)Cn2cnc3ccccc32)[C@H](OCc2ccccc2)C1`, the IC50 was 10.9 µM (A2780; cell growth, inhibitor, MTT; 72 h).
`C=CC(=O)N1CCC([C@@H]2CCNc3c(C(N)=O)c(-c4ccc(Oc5ccccc5)cc4)nn32)CC1` gave an IC50 of 0.00238 µM (TMD8; calcium flux, FLIPR; 2 h preincubation, added: anti-IgM).
With `C[C@@H]1CN(C(=O)c2ccc(NC(=O)c3cc(O[C@H](C)c4c(Cl)ccc(F)c4Cl)c(N)nn3)cc2)C[C@H](C)N1` the IC50 was 0.0162 µM (Aska-SS (ALK exon 2-17 deletion); cell viability).
The IC50 of `CC#CC(=O)N1CCC[C@H]1c1nc(-c2ccc(C(=O)Nc3ccccn3)cc2)c2c(N)nccn12` is reported as 0.422 µM (TMD8; calcium flux, FLIPR; 1 h preincubation, added: anti-IgM).
`COc1ccccc1Cn1nc(-c2ccc(CO)o2)c2ccccc21` gave an IC50 of 0.41 µM (SNU-1079; cell viability, CellTiter-Glo).
For `CC1(C)CCC(CN2CCN(c3ccc(C(=O)NS(=O)(=O)c4ccc(NCC5CCOCC5)c([N+](=O)[O-])c4)c(Oc4cnc5[nH]ccc5c4)c3)CC2)=C(c2ccc(Cl)cc2)C1`, the IC50 was 0.0085 ± 0.0022 µM (KMS-12-PE; cell viability, CellTiter-Glo).
The IC50 of `C=CC(=O)Nc1cc(Nc2ncc(C(=O)OC(C)C)c(-c3cn(C)c4ccccc34)n2)c(OC)cc1N(C)CCN(C)C` is reported as 0.01 µM (NCI-H2073 KI SVD; cell proliferation, CellTiter-Glo; 72 h).
With `O=C(COc1ccc(N2C(=O)[C@@H]3[C@@H]4C=C[C@@H]([C@H]5C[C@@H]45)[C@@H]3C2=O)cc1)c1ccc(Cl)cc1` the IC50 was 0.00238 µM (Mut6 cells; cell viability, CellTiter-Glo; 96 h).
With `C[C@@H]1CC[C@@H]([C@](C)(O)CNCc2cccc3ccccc23)[C@H](OCc2ccccc2)C1` the IC50 was 13.7 µM (A2780; cell growth, inhibitor, MTT; 72 h).
The IC50 of `CC(C)(C[C@H]1CN(S(=O)(=O)c2cccc(C(F)(F)F)c2)c2cc(-c3cc(F)cc(OC(F)F)c3)ccc2O1)C(=O)O` is reported as at least 20 µM (HCC70 and MDA-MB-468; cell growth, CellTiter-Glo; 96 h).
The IC50 of `CCCCN1C[C@H](O)[C@@H](O)[C@@H](O)[C@H]1CO` is reported as 21.1 µM (sample H patient fibroblasts; GlcCer level lowering, LC-MS/MS, item: GlcCer d18:1/24:1; 216 h).
For `O=C(c1cc(Cc2n[nH]c(=O)c3ccccc23)ccc1F)N1CCN(C(=O)C2CC2)CC1`, the IC50 was 0.611 µM (MX1).
`Cc1cc(C(=O)COc2ccc(N3C(=O)[C@@H]4[C@@H]5C=C[C@@H]([C@H]6C[C@@H]56)[C@@H]4C3=O)cc2)ccc1Cl` gave an IC50 of 0.000791 µM (Mut6 cells; cell viability, CellTiter-Glo; 96 h).
With `COc1ccccc1C(=O)c1cc2c(-c3ccccc3)c(OC)ccc2o1` the IC50 was over 50 µM (FM3A; cell proliferation; 48 h).
With `C=CC(=O)Nc1cc(Nc2nccc(-c3cn(C)c4ccccc34)n2)c(OC)cc1N(C)CCN(C)C` the IC50 was 0.106 µM (NCI-H2073 KI SVD; cell proliferation, CellTiter-Glo; 72 h).
`COc1cccc(C(=O)c2cc3c(-c4ccccc4)c(OC)ccc3o2)c1` gave an IC50 of 13 µM (FM3A; cell proliferation; 48 h).
The IC50 of `C=CC(=O)N1CCC[C@@H](c2ccc(C(N)=O)c3[nH]ccc23)C1` is reported as over 1 µM (TMD8; calcium flux, FLIPR; 1 h preincubation, added: anti-IgM).
For `CC(=O)c1c(O)c(C)c(O)c2c1OC1=CC(=O)C(C(C)=O)C(=O)C12C` (single isomer, unassigned; (+)), the IC50 was 44 µM (hepatocytes, iPSC-derived, line L3; cell viability; 24 h).
With `OCc1ccc(-c2nn(Cc3ccccc3)c3ccccc23)o1` the IC50 was 0.83 µM (SNU-1079; cell viability, CellTiter-Glo).
`C[C@H](Nc1ccc2c(c1)OCCn1cc(N3C(=O)OC[C@H]3C(F)F)nc1-2)C(N)=O` has an IC50 of 3.58 µM (MKN-1; CellTiter-Glo; 120 h).
With `C=CC(=O)Nc1cc(Nc2nccc(-c3cn(C)c4ccccc34)n2)c(OC)cc1N(C)CCN(C)C` the IC50 was 0.0503 ± 0.00188 µM (Ba/F3 EGFR H773_V774insNPH; cell growth, CellTiter-Glo; 72 h).
With `COc1ccc(C(=O)c2cc3c(-c4ccccc4)c(O)ccc3o2)cc1` the IC50 was 1.9 µM (FM3A; cell proliferation; 48 h).
`O=C(O)COCC(=O)O` gave an IC50 of 6660 µM (hepatocytes, iPSC-derived, line L3; cell viability, RealTime-Glo MT; 48 h, differentiation day 23).
For `COC(=O)Oc1ccc(C(=O)COc2ccc(N3C(=O)[C@@H]4[C@@H]5C=C[C@@H]([C@H]6C[C@@H]56)[C@@H]4C3=O)cc2)cc1`, the IC50 was 0.0366 µM (Mut6 cells; cell viability, CellTiter-Glo; 96 h).
The IC50 of `O=C(Nc1c(Cl)cncc1Cl)c1ccc(OC(F)F)c(OCC2CC2)c1` is reported as 0.0013 µM (human PBMC; cytokine release, item: TNF-α; 24 h, added: anti-CD28, and anti-CD3ε).
`Cc1cc(Nc2ncc(Cl)c(Nc3ccccc3S(=O)(=O)C(C)C)n2)c(OC(C)C)cc1C1CCNCC1` gave an IC50 of 0.0291 µM (Aska-SS (ALK exon 2-17 deletion); cell viability).
`COc1ccc(F)cc1C(=O)NCc1ccc(-c2nn([C@@H](C)C(F)(F)F)c(N)c2C(N)=O)cc1` has an IC50 of 0.0063 µM (TMD8; calcium flux; added: anti-IgM).
`N#Cc1ccc(Oc2ccc3c(c2)COB3O)cc1` gave an IC50 of 0.61 µM (human PBMC; cytokine release, item: IFN-γ; 24 h, added: anti-CD28, and anti-CD3ε).
For `CCOC(=O)c1c(-c2ccc(OC)cc2)oc2ccc(O)c(CN3CCN(Cc4cn(C[C@H]5O[C@H](O[C@H]6O[C@H](CO)[C@@H](O)[C@H](O)[C@H]6O)[C@H](O)[C@@H](O)[C@@H]5O)nn4)CC3)c12`, the IC50 was over 200 µM (J774.A1; cytotoxicity, resazurin; 18 h).
`OCc1ccc(-c2nn(Cc3ccncc3)c3ccccc23)o1` has an IC50 of 0.23 µM (SNU-1079; cell viability, CellTiter-Glo).
For `Cc1cc(N2CCc3c(c(C)nn3CC34CCC(NC(=O)[C@@H]5COCCN5)(CC3)CC4)C2)c2cnn(C)c2n1`, the IC50 was 0.0008 ± 0.0001 µM (human PBMC; qRT-PCR, item: MX1 mRNA; added: ssRNA).
